Assay results of several laboratories.
Each numbered part is a random draw from the data of one study; scales do not carry over between parts. Changes are numbered by the printed parent chain.

Sample 1
Target: CCNB2, cyclin fold, Cln2 fusion (human)
Method: yeast growth competition, sequencing
Medium: yeast
Notes: weak parent motif
Baseline: not given
Direction: higher = stronger binding
Endpoint: normalised enrichment score
Starting sequence: PKN2 docking peptide (human); VSAVQKLDFSDTM
L7T: -0.268
D8A: 0.00375
D11K: -0.256
D11W: -0.0391
V4S: -0.568
A3M: 0.059
D8K: 0.0396
K6F: -0.391
A3P: 0.47
V4H: -0.0365
S10Q: -0.689
K6P: -0.663

Sample 2
Target: TAR DNA-binding protein 43, full length, His tag (TARDBP, Homo sapiens, UniProt Q13148, residues 1-414)
Method: RNA Bind-n-Seq
Molecule type: RNA
Medium: in vitro
Concentration: 20 nM
Notes: 6-mer, flanks averaged, single round
Together with: 150 mM LiCl
Baseline: input library
Direction: higher = stronger binding
Endpoint: 6-mer enrichment (R)
CAACUG: 0.826
AGAUUG: 0.92
UGUGGA: 1.32
AGGACC: 0.9
CUCCGU: 0.936
CUCGUG: 0.918
ACUUCG: 0.807
CUCUCU: 0.942
UAGUAG: 1.01

Sample 3
Target: ABI1, truncated, D143A, DHFR fusion (Arabidopsis thaliana)
Method: DHFR PCA, deep sequencing
Medium: yeast
Notes: methotrexate growth selection, single substitutions
Together with: (+)-ABA 2500 µM
Baseline: wild-type fitted maximum
Direction: higher = stronger binding
Endpoint: relative binding score
Starting sequence: PYL1, truncated, DHFR fusion (Arabidopsis thaliana); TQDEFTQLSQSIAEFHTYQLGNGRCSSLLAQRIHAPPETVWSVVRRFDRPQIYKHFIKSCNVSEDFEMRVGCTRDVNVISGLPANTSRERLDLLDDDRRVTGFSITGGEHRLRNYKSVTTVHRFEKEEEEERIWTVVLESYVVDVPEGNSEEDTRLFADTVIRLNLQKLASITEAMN
T73H: 98%
G71L: 73.8%
N149I: 72.6%
V100A: 107%
G71C: 77.6%
T154Q: 62.1%
R46K: 91.1%
I172Y: 95.4%
E152N: 92.9%
K116E: 89.8%
T160H: 93.8%
S87F: 5.11%
E174W: 78.6%
K126Y: 99.8%

Other studies, line by line
PhoQ, residues 284 288 289 292 302 303 SCKMEA  fold induction (PhoP, residues 12 14 15 18 19 NMSFL (Escherichia coli, UniProt P23836); Sort-seq, measured: YFP reporter; E. coli; PhoQ-PhoP variant library, together with: 10 µM Mg2+; baseline: high Mg2+ state, higher = stronger signaling): 15.4
